Published values pooled from the literature.
A part holds a random share of what one study measured.

Block 1
Target: Sal-like protein 4, full length isoform B (SALL4, Homo sapiens, UniProt Q9UJQ4-2, residues 1-616)
Method: universal PBM
Form: double-stranded DNA, one strand shown
Matrix: in vitro
Tested at: not given
Setting: 8-mer, flanks averaged, mean of replicates
Direction: higher = stronger binding
Construct (chain): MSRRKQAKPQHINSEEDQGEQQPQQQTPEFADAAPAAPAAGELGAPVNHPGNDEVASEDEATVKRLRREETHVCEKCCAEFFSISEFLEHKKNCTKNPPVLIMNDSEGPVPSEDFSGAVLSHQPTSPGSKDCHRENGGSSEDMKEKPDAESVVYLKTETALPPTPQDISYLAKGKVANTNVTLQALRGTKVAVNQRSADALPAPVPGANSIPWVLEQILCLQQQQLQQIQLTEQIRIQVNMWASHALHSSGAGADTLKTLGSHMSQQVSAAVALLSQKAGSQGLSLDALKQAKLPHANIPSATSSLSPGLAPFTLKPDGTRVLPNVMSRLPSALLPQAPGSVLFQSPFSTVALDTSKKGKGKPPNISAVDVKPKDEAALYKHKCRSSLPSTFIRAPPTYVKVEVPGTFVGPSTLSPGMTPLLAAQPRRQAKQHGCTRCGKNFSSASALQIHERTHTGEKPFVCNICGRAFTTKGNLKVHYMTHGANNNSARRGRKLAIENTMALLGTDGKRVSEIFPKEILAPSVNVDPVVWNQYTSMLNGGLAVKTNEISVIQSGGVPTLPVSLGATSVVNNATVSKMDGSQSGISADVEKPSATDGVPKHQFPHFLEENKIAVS
Oligonucleotide | E-score
CACTGACA | -0.0318
GTTTCCGA | -0.256
ATTCGCAA | 0.211
CAGGAGGG | -0.137
CCGTTGTC | -0.0719
CAATGAGG | -0.125
GCTGCTAA | -0.222

Block 2
Target: Ras GTPase-activating protein-binding protein 1, full length (G3BP1, Homo sapiens, UniProt Q13283)
UniProt Q13283, sequence (whole entry, looked up): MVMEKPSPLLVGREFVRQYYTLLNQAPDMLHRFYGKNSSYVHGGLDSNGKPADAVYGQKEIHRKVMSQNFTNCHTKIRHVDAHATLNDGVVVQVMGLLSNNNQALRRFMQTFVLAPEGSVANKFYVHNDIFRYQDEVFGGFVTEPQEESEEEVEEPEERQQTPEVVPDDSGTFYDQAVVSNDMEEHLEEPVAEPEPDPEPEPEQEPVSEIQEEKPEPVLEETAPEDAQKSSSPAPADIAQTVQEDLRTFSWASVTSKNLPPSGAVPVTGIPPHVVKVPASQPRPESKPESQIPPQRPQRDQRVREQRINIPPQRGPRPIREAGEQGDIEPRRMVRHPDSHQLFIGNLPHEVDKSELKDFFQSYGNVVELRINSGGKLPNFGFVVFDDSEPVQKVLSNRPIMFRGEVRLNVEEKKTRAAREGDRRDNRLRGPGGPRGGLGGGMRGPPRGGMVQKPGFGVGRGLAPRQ
Method: RNA Bind-n-Seq
Form: RNA
Matrix: in vitro
Tested at: 200 nM
Setting: whole 134-nt RNA, ends assumed
Together with: 150 mM LiCl
Reference: input library
Direction: higher = stronger binding
Each molecule: 7-deaza-guanosine replaces G
Oligonucleotide | log2 enrichment
GGGAGUUCUACAGUCCGACGAUCCUGUGCUACACAUCGUAUGUACCGAAUCGGGCCCCCCCGGGGCCCCCCCGGGCCCCCCCGGAAAGUAUUAUGUUACGCCGUUCGGAUCUGUGGAAUUCUCGGGUGUCAAGG | -0.548
GGGAGUUCUACAGUCCGACGAUCUCCUCAAGUCCUGUGCUACACAUCGUAUGUACCGAAUCGGGUGGGUGGUGGGAAAGUAUUAUGUUACGCCGUUCGGAUCUGCACUUCCAGUGGAAUUCUCGGGUGUCAAGG | 0.773
GGGAGUUCUACAGUCCGACGAUCUCAGUGUCUUACCCUGAAGAGAAAGUUGUAGGUUGGCUGUUGAAAUUCAUUCCUUAGAUAUGAUCAGUUUGAUUGCCCGGCUUUAUUGCCUGGAAUUCUCGGGUGUCAAGG | -1.38
GGGAGUUCUACAGUCCGACGAUCCUGUGCUACACAUCGUAUGUACCGAAUCGGUUUUUUUGGUUUUUUUGGGGUUUUUUUGGGGAAAGUAUUAUGUUACGCCGUUCGGAUCUGUGGAAUUCUCGGGUGUCAAGG | 1.22

Block 3
Target: RNA binding protein fox-1 homolog 2, RRM domain, GST-SBP tag (RBFOX2, Homo sapiens, UniProt O43251-10, residues 100-194)
Method: RNA Bind-n-Seq
Form: RNA
Matrix: in vitro
Tested at: 365 nM
Setting: natural RNA segment, single round, ends assumed
Reference: no-protein control
Direction: higher = stronger binding
All sequences stand within: GGGAGUUCUACAGUCCGACGAUC … UGGAAUUCUCGGGUGCCAA
Construct (chain): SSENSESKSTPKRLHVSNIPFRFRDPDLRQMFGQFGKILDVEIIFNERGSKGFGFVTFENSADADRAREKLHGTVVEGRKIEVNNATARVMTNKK
Oligonucleotide | RBNS enrichment (R)
UGGGGAUUUUAAGCUUUCUGUUAAAUACUUGCAGAAAAAAUAGCAAGUACGAUUUGACAGUAGUACAAUAACCUGUGCCCAAAACACAAGAAAUACAGAGUAAAGCGAAA | 0.323
CUUGGAGAUUUAUAUGGUCCUGCAUUUUGUCCUGUGCUCACAAUGUGAAGUGUCUUCUGUAUUCAAAUCAAAAAAUAAUAUAUUUAAGGUAUAUAAGUGUGAAUCUCCUA | 4.28
AAUACAUAUCUAUGUCUCAUAAAAAUUAGAAUGUACUAUUUUAAAAUAAUAUGUGUAAAUUGAAAUUUUUUUCAUUUUUAAGUUAUCAGGCACUUUUCAUGCUGUUUAAA | 1.46
UGACAGGCUCCUUAGUCCUCGACACCAAGCUAGUAUGCGUUACCCACCUCCCAUCUGCUGCCCGGAAGGCACUGAGCAGACAGCUUCAGUAUUCAGCGAGCACGCGAACC | 1.06
UUGGCUCUCCUCUGGCUAGAGUGGGAAGAGGGGGCUGGCCAUGGGGCCCUCCCAGAACCUCAGCAUUUCCUUCCAGCCCAUCCAAACACUGAGGCAGCCUUGGGGAACCC | 0.909

Other studies, line by line
Substance | target | test | system | setting | how to read | endpoint | result
PhoQ, residues 284 288 289 292 302 303 SLSVQF | PhoP, residues 12 14 15 18 19 QYCSL (Escherichia coli, UniProt P23836) | Sort-seq, measured: YFP reporter | E. coli | PhoQ-PhoP variant library, together with: 10 µM Mg2+ | reference: high Mg2+ state, higher = stronger signaling | fold induction | 3.89

Some of these lines once more (block 2):
Oligonucleotide | log2 enrichment
GGGAGUUCUACAGUCCGACGAUCCUGUGCUACACAUCGUAUGUACCGAAUCGGGCCCCCCCGGGGCCCCCCCGGGCCCCCCCGGAAAGUAUUAUGUUACGCCGUUCGGAUCUGUGGAAUUCUCGGGUGUCAAGG | -0.548
GGGAGUUCUACAGUCCGACGAUCUCAGUGUCUUACCCUGAAGAGAAAGUUGUAGGUUGGCUGUUGAAAUUCAUUCCUUAGAUAUGAUCAGUUUGAUUGCCCGGCUUUAUUGCCUGGAAUUCUCGGGUGUCAAGG | -1.38
